Assay results gathered from unrelated publications.
Parts stem from different laboratories: compare values within a part only. Substitutions count along the parent as printed.

Set 1
Target: RNA binding protein fox-1 homolog 2, RRM domain, GST-SBP tag (RBFOX2, Homo sapiens, UniProt O43251-10, residues 100-194)
Technique: RNA Bind-n-Seq
Molecule type: RNA
Matrix: in vitro
Concentration: 365 nM
Notes: natural RNA segment, single round, ends assumed
Relative to: no-protein control
Direction: higher = stronger binding
Shared flanks, not repeated: GGGAGUUCUACAGUCCGACGAUC … UGGAAUUCUCGGGUGCCAA
Residues (chain): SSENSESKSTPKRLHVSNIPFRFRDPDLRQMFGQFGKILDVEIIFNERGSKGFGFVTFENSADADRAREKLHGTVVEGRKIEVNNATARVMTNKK
Strand | RBNS enrichment (R)
CAUUUUCAUAAAACCGGUUAAUUUUGUAGUUUUAGCCAAAAAGUGCCCCCUUUUUACAACUGAAUUCAUCUAGCAUUUUCAUAUGGUGGAUUUAAACUGCUUAAAAAAGA | 1.51
UAGAACCCUUCUGCUUUCUAUUACCCCUCAUUUAAAAUGUAAACUCUUCACCUUGGUUUAUGAGAACUGGUUCUUGCCUUCCCCUUGAACCUCAUUAAAUGGUGAUUUCU | 1.12
AAAACACGGACCUUUUGGGUUAAAAGCUUUAACAUCUGUGAGGAAGAACUGGUCACAUGGGUUUGGAAUCUUUGAUUUCCCCUGUAUGAAUUGUACUGGCUGUUGACCAC | 0.408
AAAAGAGUGAACAAAUUCAGUGCAGUGUUUUACACAGCUUGGUACCAUGAUAGUACCAGGGACAGGUUUUAAUAGAAAUUUAAGCUAUUUGUAUUACGAACAUAGGAGUG | 0.355
CAUUUACCAUGAAUUUACUUCCUCCCAAGAGUUUGGACUGCCCGUCAGAUUGUUGCUGCACAUAGUUGCCUUUGUAUCUCUGUAUGAAAUAAAAGGUCAUUUGUUCAUGU | 0.326
GAUUUUACUUUUAUUUUUUAAAAAUACUAAGCAGUGAUCUUUAUUAACUAGGACCAUUUUCCUGAAUUGGACUAUAUAACUCAGCAGUAUGUUUCAGUCUUUCGGAGUAA | 0.597
GCCUAACCACACAGCCACCUGCCCUAAGUGACAUUGUGUUUUUAGGUGUCACCGUCUUAGCCCUUUGUUUUCCUUACUAGAGUAUCUUUCCCGCACCCCUAGGUUUGUAU | 0.918

Set 2
Target: Interferon regulatory factor 3, full length, phosphomimetic (IRF3, Homo sapiens, UniProt Q14653, residues 1-427, S386D/S396D/S398D/S402D/T404D/S405D)
Technique: protein-binding microarray
Molecule type: double-stranded DNA, one strand shown
Matrix: in vitro
Concentration: 2540 nM top
Notes: 60-bp whole probe
Together with: salmon DNA 0.4 mg/ml
Relative to: random background probes
Direction: higher = stronger binding
Shared flanks, not repeated: GCCTAGCAC … GTCTTGATTCGCTTGACGCTGCTG
Residues (chain): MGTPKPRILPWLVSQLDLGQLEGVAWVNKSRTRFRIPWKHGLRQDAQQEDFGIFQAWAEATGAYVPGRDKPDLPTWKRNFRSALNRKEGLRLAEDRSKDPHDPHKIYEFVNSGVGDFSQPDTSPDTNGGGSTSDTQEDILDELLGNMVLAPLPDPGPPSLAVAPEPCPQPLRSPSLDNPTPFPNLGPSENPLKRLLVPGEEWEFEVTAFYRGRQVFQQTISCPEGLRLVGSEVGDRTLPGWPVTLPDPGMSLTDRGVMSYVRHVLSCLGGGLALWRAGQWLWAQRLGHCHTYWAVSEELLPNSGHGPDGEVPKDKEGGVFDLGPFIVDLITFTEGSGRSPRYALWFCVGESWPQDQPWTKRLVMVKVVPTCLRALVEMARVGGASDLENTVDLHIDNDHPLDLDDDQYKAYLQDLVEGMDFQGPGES
Strand | fitted relative affinity
TCATGTTTCCATTTTCTACTGTGCTAG | 7.14 z-score
GACGGTCTGGGGACTGGGGACGTGCTA | -0.972 z-score
TTAGGTTTCCTACTACTTTAGTGCTAG | 5.77 z-score
TTATAACTGAGACTGGATTAGTGCTAG | -0.0424 z-score
TTAGGTCTCAGTATCGATTAGTGCTAG | 1.45 z-score
GAAGGTTTCGGGTTTCGGGACGTGCTA | 5.59 z-score

Set 3
Target: CCNA2, cyclin fold, Cln2 fusion (human)
Technique: yeast growth competition, sequencing
Matrix: yeast
Notes: strong parent motif
Relative to: not given
Direction: higher = stronger binding
Starting sequence: CDC6 docking peptide (human); TLKGRRLVFDNQL; partner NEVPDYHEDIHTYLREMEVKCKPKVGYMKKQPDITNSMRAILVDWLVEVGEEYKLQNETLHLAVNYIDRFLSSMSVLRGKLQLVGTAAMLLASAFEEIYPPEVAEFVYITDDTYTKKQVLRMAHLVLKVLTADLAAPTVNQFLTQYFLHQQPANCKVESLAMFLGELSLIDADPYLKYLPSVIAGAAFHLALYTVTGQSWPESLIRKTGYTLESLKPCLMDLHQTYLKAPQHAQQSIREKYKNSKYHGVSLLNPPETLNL
Substitution | normalised enrichment score
R5T | 1.58
R6M | 2.37
L13F | 3.17
V8A | 0.788
F9D | 0.639
T1V | 3.57
R6T | 0.94

Other studies, line by line
Molecule | target | assay | test system | setting | scale | measurement | result
PhoQ, residues 284 288 289 292 302 303 TLASMF | PhoP, residues 12 14 15 18 19 YHFSH (Escherichia coli, UniProt P23836) | Sort-seq, refers to: YFP reporter | E. coli | PhoQ-PhoP variant library, together with: 10 µM Mg2+ | relative to: high Mg2+ state, higher = stronger signaling | fold induction | 2.93

Excerpt of the above (set 3):
Substitution | normalised enrichment score
R6M | 2.37
